# Assay results collected from several papers.
# Numbered parts are unrelated; each lists some results of a single study. Positions count from the first letter of the parent shown.

# Set 1 — Molecule: H2AC11 (Homo sapiens, UniProt P0C0S8); method: cross-linking MS; setting: hits only
partner,interaction screen
"H2BC5 (Homo sapiens, UniProt P58876)",cross-linked
"H2BC3 (Homo sapiens, UniProt P33778)",cross-linked
"H2BC21 (Homo sapiens, UniProt Q16778)",cross-linked
"H2BC9 (Homo sapiens, UniProt Q93079)",cross-linked
"H2BC26 (Homo sapiens, UniProt Q8N257)",cross-linked
"H2AC20 (Homo sapiens, UniProt Q16777)",cross-linked

# Set 2 — method: RNA Bind-n-Seq; molecule type: RNA; matrix: in vitro; tested at: 200 nM; setting: whole 134-nt RNA, ends assumed; with: 150 mM KCl; relative to: input library; reading: higher = stronger binding
# Target: Ras GTPase-activating protein-binding protein 1, full length (G3BP1, Homo sapiens, UniProt Q13283)
# UniProt Q13283, sequence (whole entry, looked up): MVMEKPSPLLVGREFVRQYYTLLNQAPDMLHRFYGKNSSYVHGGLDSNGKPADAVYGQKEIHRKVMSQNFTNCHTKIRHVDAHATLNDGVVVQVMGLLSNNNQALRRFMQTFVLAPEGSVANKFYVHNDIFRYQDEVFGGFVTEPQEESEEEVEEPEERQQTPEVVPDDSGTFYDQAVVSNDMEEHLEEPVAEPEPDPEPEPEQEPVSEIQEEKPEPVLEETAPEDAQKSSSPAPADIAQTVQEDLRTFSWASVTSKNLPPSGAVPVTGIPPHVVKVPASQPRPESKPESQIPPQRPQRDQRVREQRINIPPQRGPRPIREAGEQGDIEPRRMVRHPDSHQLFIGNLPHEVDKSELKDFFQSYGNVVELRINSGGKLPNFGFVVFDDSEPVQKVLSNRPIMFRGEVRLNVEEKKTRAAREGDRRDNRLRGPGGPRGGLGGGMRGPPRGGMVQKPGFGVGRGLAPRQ
Oligonucleotide,log2 enrichment
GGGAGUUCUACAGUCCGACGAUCUCCUGUGCUACACAUCGUAUGUACCGAAUCGGUUUUUUUGGAAAAAAAGGAAAAAAAGGAAAGUAUUAUGUUACGCCGUUCGGAUCUGCAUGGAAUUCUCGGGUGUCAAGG,-0.776
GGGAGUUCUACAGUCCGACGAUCCCUCAAGUCCUGUGCUACACAUCGUAUGUACCGAAUCGGUUGGUUGGGUUGGGAAAGUAUUAUGUUACGCCGUUCGGAUCUGCACUUCCAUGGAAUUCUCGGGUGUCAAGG,-0.317
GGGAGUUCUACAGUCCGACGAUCGUCCUGUGCUACACAUCGUAUGUACCGAAUCGGGGAAAAGGGGAAAAGGGGAAAAGGGAAAGUAUUAUGUUACGCCGUUCGGAUCUGCACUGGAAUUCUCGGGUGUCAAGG,0.27
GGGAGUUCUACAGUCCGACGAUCCAAGUCCUGUGCUACACAUCGUAUGUACCGAAUCGGGGUUUGGUUUGGGUUUGGGGAAAGUAUUAUGUUACGCCGUUCGGAUCUGCACUUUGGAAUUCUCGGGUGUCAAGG,-0.0208
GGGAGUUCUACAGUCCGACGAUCUGGCCCUGGUGGCAUGCUGGGAGGAAGAGGUGGCCUCAUGGAUCGUGGUGGUCCCGGUGGAAUGUUCAGAGGUGGCCGUGGUGGAGACAGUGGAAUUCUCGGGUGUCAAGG,0.117
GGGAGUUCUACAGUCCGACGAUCACCAUGCAGGUGGGCAUCUUUGGGAAGUGGGGCAAGGGGGGGAUAGGGAGGGGGGUAACACUUUGGGAACAGGUGGUCCCAGAUCGUUUCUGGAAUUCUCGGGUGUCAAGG,1.24
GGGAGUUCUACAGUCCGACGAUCAGUCCUGUGCUACACAUCGUAUGUACCGAAUCGGGUUUUUGGGAGGGUUUUUUUGGGAAAGUAUUAUGUUACGCCGUUCGGAUCUGCACUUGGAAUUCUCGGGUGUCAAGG,-0.196
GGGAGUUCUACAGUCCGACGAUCUCCUGUGCUACACAUCGUAUGUACCGAAUCGGGGUUUUUGGUUUUUGGGGUUUUUGGGGAAAGUAUUAUGUUACGCCGUUCGGAUCUGCAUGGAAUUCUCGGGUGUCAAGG,-0.0606

# Further values, each from its own experiment — tested at: not given
# FOXP2 N303T/S325N N-truncated, polyQ removed: Forkhead box protein P2, N-truncated, polyQ removed (FOXP2, Homo sapiens, UniProt O15409, residues 214-715, N303T/S325N)
# UniProt O15409, sequence (214-715, unmodified, looked up): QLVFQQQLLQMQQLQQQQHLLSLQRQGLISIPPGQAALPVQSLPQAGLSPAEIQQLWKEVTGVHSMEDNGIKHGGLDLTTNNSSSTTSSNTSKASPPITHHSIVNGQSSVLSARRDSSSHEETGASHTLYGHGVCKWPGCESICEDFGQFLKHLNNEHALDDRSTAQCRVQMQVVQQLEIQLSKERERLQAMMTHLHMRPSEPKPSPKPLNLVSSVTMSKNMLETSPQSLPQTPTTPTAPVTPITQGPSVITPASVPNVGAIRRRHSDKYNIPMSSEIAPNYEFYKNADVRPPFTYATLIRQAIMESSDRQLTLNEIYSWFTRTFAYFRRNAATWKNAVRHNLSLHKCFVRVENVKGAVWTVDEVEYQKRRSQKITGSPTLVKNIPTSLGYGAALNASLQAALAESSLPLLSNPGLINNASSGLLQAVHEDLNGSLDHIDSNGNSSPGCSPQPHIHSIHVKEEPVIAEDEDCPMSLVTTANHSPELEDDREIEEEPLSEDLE
# P1: PafA, mature enzyme, eGFP fusion (Elizabethkingia meningoseptica, UniProt Q9KJX5); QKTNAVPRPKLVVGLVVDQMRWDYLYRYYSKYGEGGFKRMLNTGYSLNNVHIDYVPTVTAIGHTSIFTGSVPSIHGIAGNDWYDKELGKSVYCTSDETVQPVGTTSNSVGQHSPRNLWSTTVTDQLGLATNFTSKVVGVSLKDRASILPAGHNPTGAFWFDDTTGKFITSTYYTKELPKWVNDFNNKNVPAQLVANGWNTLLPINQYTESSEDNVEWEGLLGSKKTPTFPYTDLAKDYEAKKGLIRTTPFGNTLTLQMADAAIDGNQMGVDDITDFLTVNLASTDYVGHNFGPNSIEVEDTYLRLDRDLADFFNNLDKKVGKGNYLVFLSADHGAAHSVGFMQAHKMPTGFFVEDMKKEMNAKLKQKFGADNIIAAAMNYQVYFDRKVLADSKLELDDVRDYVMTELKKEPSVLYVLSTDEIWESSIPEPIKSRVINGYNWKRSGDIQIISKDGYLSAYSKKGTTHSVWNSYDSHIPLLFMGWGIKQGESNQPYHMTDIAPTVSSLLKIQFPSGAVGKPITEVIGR
Molecule,target,test,test system,setting,scale,endpoint,value
CGCCTGTTACGGCATCAGGGCTTTGGTTTGGGATGGCTGCTTGTTTGCCAATTGTTCCGGCGGTATGAC,"FOXP2 N303T/S325N N-truncated, polyQ removed",MITOMI,"double-stranded DNA, one strand shown, in vitro","69-bp whole dsDNA, apparent Ka, titration fit","relative to: unmutated reference site, higher = stronger binding",relative association constant,0.0452 fold
P1 K346V,"inorganic phosphate, free oxyanion",microfluidic competitive inhibition,"in vitro, cell-free expressed","derived from inhibition constants, unchanged parent 615000 nM",lower = stronger binding,phosphate dissociation constant,642 µM
CGCCTGTTACGGCATCAGGGCTTTGGTTTGGGATGGCTGCTTGTTTAGCAATTGTTCCGGCGGTATGAC,"FOXP2 N303T/S325N N-truncated, polyQ removed",MITOMI,"double-stranded DNA, one strand shown, in vitro","69-bp whole dsDNA, apparent Ka, titration fit","relative to: unmutated reference site, higher = stronger binding",relative association constant,0.0703 fold

# A few entries again (further values, each from its own experiment):
Molecule,target,test,test system,setting,scale,endpoint,value
CGCCTGTTACGGCATCAGGGCTTTGGTTTGGGATGGCTGCTTGTTTAGCAATTGTTCCGGCGGTATGAC,"FOXP2 N303T/S325N N-truncated, polyQ removed",MITOMI,"double-stranded DNA, one strand shown, in vitro","69-bp whole dsDNA, apparent Ka, titration fit","relative to: unmutated reference site, higher = stronger binding",relative association constant,0.0703 fold
